Measurements of several laboratories.
Technique: steady-state kinetics
B1: pol D141A/E143A/G245D (Thermococcus kodakarensis, UniProt P77933); chain 1 MILDTDYITEDGKPVIRIFKKENGEFKIEYDRTFEPYFYALLKDDSAIEEVKKITAERHGTVVTVKRVEKVQKKFLGRPVEVWKLYFTHPQDVPAIRDKIREHPAVIDIYEYDIPFAKRYLIDKGLVPMEGDEELKMLAFAIATLYHEGEEFAEGPILMISYADEEGARVITWKNVDLPYVDVVSTEREMIKRFLRVVKEKDPDVLITYNGDNFDFAYLKKRCEKLGINFALGRDGSEPKIQRMDDRFAVEVKGRIHFDLYPVIRRTINLPTYTLEAVYEAVFGQPKEKVYAEEITTAWETGENLERVARYSMEDAKVTYELGKEFLPMEAQLSRLIGQSLWDVSRSSTGNLVEWFLLRKAYERNELAPNKPDEKELARRRQSYEGGYVKEPERGLWENIVYLDFR; chain 2 SLYPSIIITHNVSPDTLNREGCKEYDVAPQVGHRFCKDFPGFIPSLLGDLLEERQKIKKKMKATIDPIERKLLDYRQRAIKILAN; chain 3 NSYYGYYGYARARWYCKECAESVTAWGREYITMTIKEIEEKYGFKVIYSDTDGFFATIPGADAETVKKKAMEFLKYINAKLPGALELEYEGFYKRGFFVTKKKYAVIDEEGKITTRGLEIVRRDWSEIAKETQARVLEALLKDGDVEKAVRIVKEVTEKLSKYEVPPEKLVIHEQITRDLKDYKATGPHVAVAKRLAARGVKIRPGTVISYIVLKGSGRIGDRAIPFDEFDPTKHKYDAEYYIENQVLPAVERILRAFGYRKEDLRYQKTRQVGLSAWLKPKGT
B2: cbh1 (Trichoderma reesei, UniProt P62694); chain QSACTLQSETHPPLTWQKCSSGGTCTQQTGSVVIDANWRWTHATNSSTNCYDGNTWSSTLCPDNETCAKNCCLDGAAYASTYGVTTSGNSLSIGFVTQSAQKNVGARLYLMASDTTYQEFTLLGNEFSFDVDVSQLPCGLNGALYFVSMDADGGVSKYPTNTAGAKYGTGYCDSQCPRDLKFINGQANVEGWEPSSNNANTGIGGHGSCCSEMDIWEANSISEALTPHPCTTVGQEICEGDGCGGTYSDNRYGGTCDPDGCDWNPYRLGNTSFYGPGSSFTLDTTKKLTVVTQFETSGAINRYYVQNGVTFQQPNAELGSYSGNELNDDYCTAEEAEFGGSSFSDKGGLTQFKKATSGGMVLVMSLWDDYYANMLWLDSTYPTNETSSTPGAVRGSCSTSSGVPAQVESQSPNAKVTFSNIKFGPIGSTGNPSGGNPPGGNRGTTTTRRPATTTGSSPGPTQSHYGQCGGIGYSGPTVCASGTTCQVLNPYYSQCL
B3: FabZ (Campylobacter jejuni, UniProt A1VXZ7); chain MIDVMQIQEILPHRYPFLLVDKITELKVKEVVLGYKNISISDHVFMGHFPGHPIYPGVLILEGMAQTGGVLAFESMEDKVDPKSKVVYFTGIDGAKFRNPVRPGDRLDYEMSVVKNRGNMWIFKGQAFVDGNLVAEAELKAMIVDK
B4: enzyme (Homo sapiens, UniProt Q9H1U9); chain MMDSEAHEKRPPILTSSKQDISPHITNVGEMKHYLCGCCAAFNNVAITFPIQKVLFRQQLYGIKTRDAILQLRRDGFRNLYRGILPPLMQKTTTLALMFGLYEDLSCLLHKHVSAPEFATSGVAAVLAGTTEAIFTPLERVQTLLQDHKHHDKFTNTYQAFKALKCHGIGEYYRGLVPILFRNGLSNVLFFGLRGPIKEHLPTATTHSAHLVNDFICGGLLGAMLGFLFFPINVVKTRIQSQIGGEFQSFPKVFQKIWLERDRKLINLFRGAHLNYHRSLISWGIINATYEFLLKVI
B5: POLK W214Y/W392H/Y50W (Homo sapiens, UniProt Q9UBT6); chain MGLNDNKAGMEGLDKEKINKIIMEATKGSRFWGNELKKEKQVNQRIENMMQQKAQITSQQLRKAQLQVDRFAMELEQSRNLSNTIVHIDMDAFYAAVEMRDNPELKDKPIAVGSMSMLSTSNYHARRFGVRAAMPGFIAKRLCPQLIIVPPNFDKYRAVSKEVKEILADYDPNFMAMSLDEAYLNITKHLEERQNYPEDKRRYFIKMGSSVENDNPGKEVNKLSEHERSISPLLFEESPSDVQPPGDPFQVNFEEQNNPQILQNSVVFGTSAQEVVKEIRFRIEQKTTLTASAGIAPNTMLAKVCSDKNKPNGQYQILPNRQAVMDFIKDLPIRKVSGIGKVTEKMLKALGIITCTELYQQRALLSLLFSETSHHYFLHISLGLGSTHLTRDGERKSMSVERTFSEINKAEEQYSLCQELCSELAQDLQKERLKGRTVTIKLKNVNFEVKTRASTVSSVVSTAEEIFAIAKELLKTEIDADFPHPLRLRLMGVRISSFPNEEDRKHQQ
B6: protein (Cecembia lonarensis, UniProt K1KZY4); chain QVQYNPEKPARPEDHKPFFYKYNTRQLYEKFSDDLMQRAANDRKEIEKINQLGKYKPKKQSLDEHEVPEWFRDAKLGIFLDWGPWSVPGYAPPGSEGDTGGSYPDWYEFLMDFTYKAYHDSIWGEDFRRDDFLPLLHGNNFDSEEYAELAVQAGAKYMVPFARHHAGWTMWESKYTFRNAVEMGPKRDILKELVEASRKRDLKFGFYFSIAEWEYPVITKERVSQWDPYEDMAIFHDGMGLIPRPVPLASYFPARHDRMISGKIPVKDYFGDYMMPLFKEGVDLFDPDLVWYDGGWGTPANSSRVPELSAYFYNQAEGRKEVVINNRAGAYLDDSNLLKFNEVLKSGEHDKLLELYMKAEQIGDYLTPEYSIGNVDINEPWEVCRSISPAFGFNWTDNEENSLSSKELVKMFVGIVANNGNLLLVINPDGSGKLSNVQKDRLLDLGQWLKVNGEGIYSTRPWEIQESEGNFFTKSKNGEFIYIHILDKEKTTIEVPNLNPKNKGAISILGSKEKVLWENSGPITRITIPESFKDERNWPNKYGFTLKVAVK
B7: ERAP1 (Homo sapiens, UniProt Q9NZ08); chain MVFLPLKWSLATMSFLLSSLLALLTVSTPSWCQSTEASPKRSDGTPFPWNKIRLPEYVIPVHYDLLIHANLTTLTFWGTTKVEITASQPTSTIILHSHHLQISRATLRKGAGERLSEEPLQVLEHPRQEQIALLAPEPLLVGLPYTVVIHYAGNLSETFHGFYKSTYRTKEGELRILASTQFEPTAARMAFPCFDEPAFKASFSIKIRREPRHLAISNMPLVKSVTVAEGLIEDHFDVTVKMSTYLVAFIISDFESVSKITKSGVKVSVYAVPDKINQADYALDAAVTLLEFYEDYFSIPYPLPKQDLAAIPDFQSGAMENWGLTTYRESALLFDAEKSSASSKLGITMTVAHELAHQWFGNLVTMEWWNDLWLNEGFAKFMEFVSVSVTHPELKVGDYFFGKCFDAMEVDALNSSHPVSTPVENPAQIREMFDDVSYDKGACILNMLREYLSADAFKSGIVQYLQKHSYKNTKNEDLWDSMASICPTDGVKGMDGFCSRSQHSSSSSHWHQEGVDVKTMMNTWTLQKGFPLITITVRGRNVHMKQEHYMKGSDGAPDTGYLWHVPLTFITSKSDMVHRFLLKTKTDVLILPEEVEWIKFNVGMNGYYIVHYEDDGWDSLTGLLKGTHTAVSSNDRASLINNAFQLVSIGKLSIEKALDLSLYLKHETEIMPVFQGLNELIPMYKLMEKRDMNEVETQFKAFLIRLLRDLIDKQTWTDEGSVSERMLRSQLLLLACVHNYQPCVQRAEGYFRKWKESNGNLSLPVDVTLAVFAVGAQSTEGWDFLYSKYQFSLSSTEKSQIEFALCRTQNKEKLQWLLDESFKGDKIKTQEFPQILTLIGRNPVGYPLAWQFLRKNWNKLVQKFELGSSSIAHMVMGTTNQFSTRTRLEEVKGFFSSLKENGSQLRCVQQTIETIEENIGWMDKNFDKIRVWLQSEKLEHDPEADATG
B8: HARS1 Y330C (Homo sapiens, UniProt P12081); chain MAERAALEELVKLQGERVRGLKQQKASAELIEEEVAKLLKLKAQLGPDESKQKFVLKTPKGTRDYSPRQMAVREKVFDVIIRCFKRHGAEVIDTPVFELKETLMGKYGEDSKLIYDLKDQGGELLSLRYDLTVPFARYLAMNKLTNIKRYHIAKVYRRDNPAMTRGRYREFYQCDFDIAGNFDPMIPDAECLKIMCEILSSLQIGDFLVKVNDRRILDGMFAICGVSDSKFRTICSSVDKLDKVSWEEVKNEMVGEKGLAPEVADRIGDYVQQHGGVSLVEQLLQDPKLSQNKQALEGLGDLKLLFEYLTLFGIDDKISFDLSLARGLDCYTGVIYEAVLLQTPAQAGEEPLGVGSVAAGGRYDGLVGMFDPKGRKVPCVGLSIGVERIFSIVEQRLEALEEKIRTTETQVLVASAQKKLLEERLKLVSELWDAGIKAELLYKKNPKLLNQLQYCEEAGIPLVAIIGEQELKDGVIKLRSVTSREEVDVRREDLVEEIKRRTGQPLCIC
Sequence of UniProt P05164 (whole entry, looked up): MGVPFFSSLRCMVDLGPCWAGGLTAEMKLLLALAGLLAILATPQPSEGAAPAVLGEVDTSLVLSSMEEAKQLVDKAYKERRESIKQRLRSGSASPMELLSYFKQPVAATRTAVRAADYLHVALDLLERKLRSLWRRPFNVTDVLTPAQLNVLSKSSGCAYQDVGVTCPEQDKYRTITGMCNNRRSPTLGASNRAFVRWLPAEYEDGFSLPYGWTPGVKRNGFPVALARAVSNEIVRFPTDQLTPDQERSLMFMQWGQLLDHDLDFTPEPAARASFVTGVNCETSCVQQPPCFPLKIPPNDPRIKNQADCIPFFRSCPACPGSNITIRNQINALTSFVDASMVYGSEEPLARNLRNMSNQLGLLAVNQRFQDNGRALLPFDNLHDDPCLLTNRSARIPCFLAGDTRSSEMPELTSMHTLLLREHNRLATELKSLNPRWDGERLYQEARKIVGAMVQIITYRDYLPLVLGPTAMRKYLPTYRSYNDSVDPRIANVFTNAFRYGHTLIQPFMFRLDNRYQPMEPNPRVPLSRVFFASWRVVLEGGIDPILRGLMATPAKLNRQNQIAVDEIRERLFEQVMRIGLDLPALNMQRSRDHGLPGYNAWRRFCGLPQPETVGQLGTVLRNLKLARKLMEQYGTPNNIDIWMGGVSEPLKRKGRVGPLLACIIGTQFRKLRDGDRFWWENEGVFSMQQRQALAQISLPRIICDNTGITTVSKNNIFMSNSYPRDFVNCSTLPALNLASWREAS

`B1 (pol D141A/E143A/G245D)` has a Km of 9.2 µM (Nc1nc2c(ncn2[C@H]2C[C@H](O)[C@@H](COP(=O)(O)OP(=O)(O)OP(=O)(O)O)O2)c(=O)[nH]1; pH 8, 55 °C).
`B2 (cbh1)` gave a Km of 7 µM (O=[N+]([O-])c1ccccc1O[C@@H]1O[C@H](CO)[C@@H](O[C@@H]2O[C@H](CO)[C@@H](O)[C@H](O)[C@H]2O)[C@H](O)[C@H]1O; pH 5, 25 °C, apparent).
`B3 (FabZ)` gave a Km of 69.7 µM (C/C=C/C(=O)SCCNC(=O)CCNC(=O)[C@H](O)C(C)(C)COP(=O)(O)OP(=O)(O)OC[C@H]1O[C@@H](n2cnc3c(N)ncnc32)[C@H](O)[C@@H]1OP(=O)(O)O; pH 7.5, room temperature, NaCl 500 mM, reverse hydration reaction).
`B4 (enzyme)` gave a Km of 200 µM (NC(=O)c1ccc[n+]([C@@H]2O[C@H](COP(=O)(O)OP(=O)(O)OC[C@H]3O[C@@H](n4cnc5c(N)ncnc54)[C@H](O)[C@@H]3O)[C@@H](O)[C@H]2O)c1; pH 6.8, apparent, not purified).
The Km of `enzyme (Anopheles gambiae, UniProt Q7PXJ0)` is reported as 207 µM (O=[N+]([O-])c1ccc(O)cc1; pH 6.5, 37 °C).
For `B5 (POLK W214Y/W392H/Y50W)`, the Km was 0.67 µM (Nc1ccn([C@H]2C[C@H](O)[C@@H](COP(=O)(O)OP(=O)(O)OP(=O)(O)O)O2)c(=O)n1; pH 7.5, 23 °C, MgCl2 5 mM, added: G template).
For `B6 (protein)`, the Km was 4130 µM (O=[N+]([O-])c1ccc(O[C@@H]2OC[C@H](O)[C@@H](O)[C@@H]2O)cc1; pH 5.5, 35 °C, substrate inhibition).
For `B7 (ERAP1)`, the Km was 30 µM (CC(C)C[C@H](NC(=O)CNC(=O)[C@H](CCC(=O)O)NC(=O)[C@H](Cc1ccccc1)NC(=O)[C@H](CCCNC(=N)N)NC(=O)[C@H](CCCCN)NC(=O)[C@@H](N)Cc1ccc(O)cc1)C(=O)N[C@H](C(=O)N[C@@H](CCC(N)=O)C(=O)N[C@@H](CCCNC(=N)N)C(=O)O)[C@@H](C)O; 25 °C).
`protein (Chlorobium limicola, UniProt B3ECE3)` gave a Km of 18.1 µM (SSSS; pH 8, 25 °C, polysulfide mixture, added: hercynine 0.5 mM).
For `enzyme (Chloroflexus aurantiacus, UniProt A9WIU3)`, the Km was 10 µM (NC(=O)C1=CN([C@@H]2O[C@H](COP(=O)(O)OP(=O)(O)OC[C@H]3O[C@@H](n4cnc5c(N)ncnc54)[C@H](OP(=O)(O)O)[C@@H]3O)[C@@H](O)[C@H]2O)C=CC1; apparent, cofactor varied).
`MPO (Homo sapiens, UniProt P05164)` gave a Km of 39 µM (CC(=O)N1c2ccc(O)cc2Oc2cc(O)ccc21; 25 °C, stopped-flow, integrated fit).
`B8 (HARS1 Y330C)` has a Km of 1760 µM (Nc1ncnc2c1ncn2[C@@H]1O[C@H](COP(=O)(O)OP(=O)(O)OP(=O)(O)O)[C@@H](O)[C@H]1O; pH 7.5, saturation not reached, added: histidine, tRNAHis 5 µM, MgCl2 10 mM, KCl 150 mM).
